Measurements pooled from the literature.
Each numbered part is a random draw from the data of one study; scales do not carry over between parts. Values joined by “and” are separate records of one study, mostly repeats; a detail may differ.
Chain of UniProt Q9P0L2 (whole entry, looked up): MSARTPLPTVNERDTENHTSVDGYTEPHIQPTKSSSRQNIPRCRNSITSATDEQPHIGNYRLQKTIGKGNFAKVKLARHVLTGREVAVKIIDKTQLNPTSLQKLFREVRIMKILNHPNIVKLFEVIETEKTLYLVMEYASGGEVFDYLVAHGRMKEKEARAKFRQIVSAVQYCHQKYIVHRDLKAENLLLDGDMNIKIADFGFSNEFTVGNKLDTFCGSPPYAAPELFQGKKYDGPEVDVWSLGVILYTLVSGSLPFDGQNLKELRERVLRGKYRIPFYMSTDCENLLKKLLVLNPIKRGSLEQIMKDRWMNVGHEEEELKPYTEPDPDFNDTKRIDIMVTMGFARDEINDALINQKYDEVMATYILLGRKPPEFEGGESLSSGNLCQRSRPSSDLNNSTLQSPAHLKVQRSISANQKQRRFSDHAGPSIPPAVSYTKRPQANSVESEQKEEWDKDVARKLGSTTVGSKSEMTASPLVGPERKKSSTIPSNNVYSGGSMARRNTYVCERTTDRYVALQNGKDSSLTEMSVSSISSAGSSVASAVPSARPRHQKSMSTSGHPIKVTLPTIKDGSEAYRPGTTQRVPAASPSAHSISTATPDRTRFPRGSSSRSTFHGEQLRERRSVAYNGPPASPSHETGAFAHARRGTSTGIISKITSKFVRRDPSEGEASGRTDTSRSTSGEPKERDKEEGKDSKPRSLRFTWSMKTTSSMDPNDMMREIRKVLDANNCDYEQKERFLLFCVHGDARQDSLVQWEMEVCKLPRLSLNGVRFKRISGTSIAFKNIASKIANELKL
Chain of UniProt O75385 (whole entry, looked up): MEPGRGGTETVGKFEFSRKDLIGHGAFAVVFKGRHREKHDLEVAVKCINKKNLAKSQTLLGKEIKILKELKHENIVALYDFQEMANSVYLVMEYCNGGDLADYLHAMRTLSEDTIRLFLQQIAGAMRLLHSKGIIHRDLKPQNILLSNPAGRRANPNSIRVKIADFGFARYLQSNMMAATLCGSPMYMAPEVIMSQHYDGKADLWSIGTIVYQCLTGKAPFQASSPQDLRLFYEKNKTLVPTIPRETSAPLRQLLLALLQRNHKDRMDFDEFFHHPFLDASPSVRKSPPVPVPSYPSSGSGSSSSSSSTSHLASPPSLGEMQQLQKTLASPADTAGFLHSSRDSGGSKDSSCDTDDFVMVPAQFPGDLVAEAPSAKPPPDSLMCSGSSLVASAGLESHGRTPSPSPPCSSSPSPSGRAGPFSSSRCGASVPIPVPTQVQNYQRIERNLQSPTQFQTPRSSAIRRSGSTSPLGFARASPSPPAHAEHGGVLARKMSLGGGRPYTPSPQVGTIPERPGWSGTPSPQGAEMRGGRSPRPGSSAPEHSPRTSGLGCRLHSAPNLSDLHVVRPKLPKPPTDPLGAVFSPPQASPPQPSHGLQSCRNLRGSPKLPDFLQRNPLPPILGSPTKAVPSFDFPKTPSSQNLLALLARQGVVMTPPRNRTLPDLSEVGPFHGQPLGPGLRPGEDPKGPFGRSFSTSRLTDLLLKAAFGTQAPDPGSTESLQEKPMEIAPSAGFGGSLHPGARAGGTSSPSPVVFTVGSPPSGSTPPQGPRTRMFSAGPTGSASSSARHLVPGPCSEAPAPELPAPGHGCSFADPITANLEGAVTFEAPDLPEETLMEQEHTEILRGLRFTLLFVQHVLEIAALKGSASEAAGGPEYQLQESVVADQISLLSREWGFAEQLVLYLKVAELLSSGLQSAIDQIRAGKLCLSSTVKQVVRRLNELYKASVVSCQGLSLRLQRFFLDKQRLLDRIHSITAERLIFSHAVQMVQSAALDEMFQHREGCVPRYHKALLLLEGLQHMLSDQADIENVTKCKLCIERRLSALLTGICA
Chain of UniProt P36897 (whole entry, looked up): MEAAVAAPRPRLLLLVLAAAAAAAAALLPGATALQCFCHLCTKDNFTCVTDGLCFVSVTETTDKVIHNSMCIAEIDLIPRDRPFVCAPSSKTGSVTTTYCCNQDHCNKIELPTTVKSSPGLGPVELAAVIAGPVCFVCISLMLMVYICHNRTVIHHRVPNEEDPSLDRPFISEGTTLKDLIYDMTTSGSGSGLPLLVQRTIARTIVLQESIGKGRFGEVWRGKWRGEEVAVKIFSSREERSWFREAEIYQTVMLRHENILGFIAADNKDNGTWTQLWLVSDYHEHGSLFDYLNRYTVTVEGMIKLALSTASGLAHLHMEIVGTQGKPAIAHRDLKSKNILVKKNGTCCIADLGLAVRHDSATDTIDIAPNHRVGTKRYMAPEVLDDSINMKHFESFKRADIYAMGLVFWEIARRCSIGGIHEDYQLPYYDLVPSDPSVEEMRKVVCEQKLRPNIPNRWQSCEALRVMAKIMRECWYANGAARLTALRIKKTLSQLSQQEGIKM
Chain of UniProt P43403 (whole entry, looked up): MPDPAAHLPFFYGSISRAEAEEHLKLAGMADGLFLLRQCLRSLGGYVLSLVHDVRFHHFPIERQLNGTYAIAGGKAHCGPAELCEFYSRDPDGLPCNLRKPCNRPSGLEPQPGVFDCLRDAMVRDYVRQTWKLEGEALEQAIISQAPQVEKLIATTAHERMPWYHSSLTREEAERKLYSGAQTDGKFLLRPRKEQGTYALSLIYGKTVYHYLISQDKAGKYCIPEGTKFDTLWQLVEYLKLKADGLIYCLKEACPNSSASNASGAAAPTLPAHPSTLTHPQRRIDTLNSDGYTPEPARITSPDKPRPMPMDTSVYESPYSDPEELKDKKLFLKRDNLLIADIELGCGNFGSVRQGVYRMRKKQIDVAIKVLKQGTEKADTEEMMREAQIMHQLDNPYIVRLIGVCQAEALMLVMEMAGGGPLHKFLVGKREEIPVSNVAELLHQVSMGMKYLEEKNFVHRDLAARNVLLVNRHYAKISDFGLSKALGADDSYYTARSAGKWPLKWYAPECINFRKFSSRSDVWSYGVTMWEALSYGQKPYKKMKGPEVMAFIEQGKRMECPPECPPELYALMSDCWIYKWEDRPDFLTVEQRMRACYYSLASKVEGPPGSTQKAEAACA
Chain of UniProt P37023 (whole entry, looked up): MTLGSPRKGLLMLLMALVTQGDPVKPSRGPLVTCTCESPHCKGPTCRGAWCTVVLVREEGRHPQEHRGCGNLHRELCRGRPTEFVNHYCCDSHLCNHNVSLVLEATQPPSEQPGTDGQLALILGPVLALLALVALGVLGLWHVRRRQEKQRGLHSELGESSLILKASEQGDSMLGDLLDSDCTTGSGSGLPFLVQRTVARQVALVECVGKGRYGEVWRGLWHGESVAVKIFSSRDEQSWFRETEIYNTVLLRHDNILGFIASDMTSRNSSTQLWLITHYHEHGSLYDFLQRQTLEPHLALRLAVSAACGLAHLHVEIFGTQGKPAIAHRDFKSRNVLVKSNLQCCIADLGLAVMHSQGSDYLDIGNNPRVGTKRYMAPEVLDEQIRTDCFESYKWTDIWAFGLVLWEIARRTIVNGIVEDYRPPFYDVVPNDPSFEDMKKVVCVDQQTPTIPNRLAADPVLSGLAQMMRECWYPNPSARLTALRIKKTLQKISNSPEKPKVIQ
Chain of UniProt Q13555 (whole entry, looked up): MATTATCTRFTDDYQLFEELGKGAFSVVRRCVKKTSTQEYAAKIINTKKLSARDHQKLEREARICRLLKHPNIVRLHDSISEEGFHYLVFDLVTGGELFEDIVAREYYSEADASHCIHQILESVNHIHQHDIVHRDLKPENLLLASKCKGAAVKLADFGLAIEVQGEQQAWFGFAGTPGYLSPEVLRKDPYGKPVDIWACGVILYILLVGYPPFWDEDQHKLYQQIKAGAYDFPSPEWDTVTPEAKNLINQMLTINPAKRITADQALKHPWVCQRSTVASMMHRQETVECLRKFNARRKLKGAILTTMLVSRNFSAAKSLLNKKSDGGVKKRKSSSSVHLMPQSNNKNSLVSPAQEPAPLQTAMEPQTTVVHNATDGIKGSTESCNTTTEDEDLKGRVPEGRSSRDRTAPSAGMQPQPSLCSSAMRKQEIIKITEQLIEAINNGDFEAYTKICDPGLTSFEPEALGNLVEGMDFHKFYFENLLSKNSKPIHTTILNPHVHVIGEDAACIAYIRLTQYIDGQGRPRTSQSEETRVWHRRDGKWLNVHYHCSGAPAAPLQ
Chain of UniProt P45983 (whole entry, looked up): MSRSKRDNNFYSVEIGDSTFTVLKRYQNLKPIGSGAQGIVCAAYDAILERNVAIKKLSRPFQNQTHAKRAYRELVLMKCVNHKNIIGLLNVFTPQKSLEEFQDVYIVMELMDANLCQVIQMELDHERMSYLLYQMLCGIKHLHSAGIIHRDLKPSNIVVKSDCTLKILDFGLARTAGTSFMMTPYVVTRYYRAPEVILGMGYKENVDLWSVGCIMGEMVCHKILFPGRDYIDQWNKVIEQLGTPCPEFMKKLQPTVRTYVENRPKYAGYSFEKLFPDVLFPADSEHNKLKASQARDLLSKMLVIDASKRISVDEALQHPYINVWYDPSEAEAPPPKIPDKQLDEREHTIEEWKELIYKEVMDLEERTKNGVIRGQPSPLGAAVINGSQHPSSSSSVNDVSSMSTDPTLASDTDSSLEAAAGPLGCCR

Series 1
SMILES: CC(=O)N[C@@H](Cc1c[nH]c2ccccc12)C(=O)N[C@@H](CCC(=O)C=[N+]=[N-])C(=O)OC(C)C
system	setting	tumour volume
mice, MC-38 tumour rechallenge	1 mg/kg, day 8 after injection	31.8 mm3 and 0 mm3 and 35 mm3
mouse, EL4 tumour	subcutaneous, 0.1 mg/kg, day 10	635 mm3 and 335 mm3 and 586 mm3 and 621 mm3 and 1330 mm3 and 558 mm3
mouse, EL4 tumour	subcutaneous, 1 mg/kg, day 9	107 mm3 and 447 mm3 and 215 mm3 and 220 mm3 and 316 mm3 and 261 mm3
mice, MC-38 tumour rechallenge	0.26 mg/kg, day 32 after injection	0 mm3
mice, MC-38 tumour rechallenge	1 mg/kg, day 46 after injection	0 mm3

Series 2 — technique: competition with immobilised ligand; tested at: 1 µM
Compound: CN1CCN(c2cnc3c(C4CCN(C(=O)c5ccc(OC(F)(F)F)cc5N)CC4)ncnc3c2)CC1
target	assay	remaining binding [%]
Activin receptor type-1-like (ACVRL1, Homo sapiens, UniProt P37023)	binding	94
Calcium/calmodulin-dependent protein kinase type 1G (CAMK1G, Homo sapiens, UniProt Q96NX5)	cell-free assay	100
Fibroblast growth factor receptor 3 (FGFR3, Homo sapiens, UniProt P22607)	cell-free assay	100
Tyrosine-protein kinase ZAP-70 (ZAP70, Homo sapiens, UniProt P43403)	cell-free assay	100
5'-AMP-activated protein kinase catalytic subunit alpha-1 (PRKAA1, Homo sapiens, UniProt Q13131)	cell-free assay	87
TGF-beta receptor type-1 (TGFBR1, Homo sapiens, UniProt P36897)	cell-free assay	90
Serine/threonine-protein kinase MARK1 (MARK1, Homo sapiens, UniProt Q9P0L2)	cell-free assay	100
Serine/threonine-protein kinase ULK1 (ULK1, Homo sapiens, UniProt O75385)	cell-free assay	100
Calcium/calmodulin-dependent protein kinase type II subunit gamma (CAMK2G, Homo sapiens, UniProt Q13555)	cell-free assay	100
Insulin receptor (INSR, Homo sapiens, UniProt P06213)	cell-free assay	88
Phosphatidylinositol 5-phosphate 4-kinase type-2 gamma (PIP4K2C, Homo sapiens, UniProt Q8TBX8)	cell-free assay	100
Mitogen-activated protein kinase 8 (MAPK8, Homo sapiens, UniProt P45983)	cell-free assay	97
Cyclin-dependent kinase-like 5 (CDKL5, Homo sapiens, UniProt O76039)	binding	93
Protein kinase C iota type (PRKCI, Homo sapiens, UniProt P41743)	cell-free assay	77
Serine/threonine-protein kinase Chk2 (CHEK2, Homo sapiens, UniProt O96017)	cell-free assay	100

Series 3 — organism: Plasmodium berghei; mode: inhibitor; cells: Huh-7; strain: GFP-expressing, liver stage; tested at: 10 µM; time: 24 h; reference: untreated control
Structure (SMILES)	infection rate [%]
N=C(N)NC(=N)NCCc1ccccc1	79.7
C#C[C@]1(OC(C)=O)CC[C@H]2[C@@H]3CCC4=CC(=NO)CC[C@@H]4[C@H]3CC[C@@]21CC (mixture of isomers)	16.4
COc1cc(NC(C)CCCN)c2ncccc2c1 (centres unmarked)	66.2
CCOC(=O)C1=C[C@]2(CC)CCCN3CCc4c(n1c1ccccc41)[C@@H]32	96.7
CN[C@@H]1[C@@H](O)[C@@H](O[C@@H]2[C@@H](O)[C@H](O[C@H]3OC(CN)=CC[C@H]3N)[C@@H](N)C[C@H]2N)OC[C@]1(C)O	68.8
Nc1c2c(nc3ccccc13)CCCC2	52.9
COc1ccc2c(c1OC)C(=O)O[C@@H]2[C@H]1c2c(cc3c(c2OC)OCO3)CCN1C	100
OC[C@H]1O[C@H](O[C@]2(CCl)O[C@H](CCl)[C@@H](O)[C@@H]2O)[C@H](O)[C@@H](O)[C@H]1Cl	116
COc1cc2nc(N3CCN(C(=O)c4ccco4)CC3)nc(N)c2cc1OC	74.5
CC[C@H]1OC(=O)[C@H](C)C(=O)[C@H](C)[C@@H](O[C@@H]2O[C@H](C)C[C@H](N(C)C)[C@H]2O)[C@](C)(OC)C[C@@H](C)C(=O)[C@H](C)[C@H]2N(CCCCn3cnc(-c4cccnc4)c3)C(=O)O[C@]12C	86.9
Nc1ccc(C(=O)Oc2ccccc2)c(O)c1	102

Series 4 — read-out: enzyme activity; mode: inhibitor; tested at: 10 µM
Target: Calcium/calmodulin-dependent protein kinase type II subunit alpha (CAMK2A, Homo sapiens, UniProt Q9UQM7)
Chain of UniProt Q9UQM7 (whole entry, looked up): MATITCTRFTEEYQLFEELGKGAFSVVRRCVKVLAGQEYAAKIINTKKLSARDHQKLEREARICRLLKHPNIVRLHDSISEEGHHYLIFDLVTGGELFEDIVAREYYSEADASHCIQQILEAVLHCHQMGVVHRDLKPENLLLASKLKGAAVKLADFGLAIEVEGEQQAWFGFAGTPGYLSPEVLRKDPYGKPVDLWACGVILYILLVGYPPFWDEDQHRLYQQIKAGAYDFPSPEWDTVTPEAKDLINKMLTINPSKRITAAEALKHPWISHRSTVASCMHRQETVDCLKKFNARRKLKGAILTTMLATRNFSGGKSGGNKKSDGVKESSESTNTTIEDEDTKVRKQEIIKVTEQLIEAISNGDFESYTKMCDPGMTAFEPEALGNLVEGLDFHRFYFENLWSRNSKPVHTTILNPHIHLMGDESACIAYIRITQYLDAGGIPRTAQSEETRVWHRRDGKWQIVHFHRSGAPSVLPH
SMILES	inhibition
COC(=O)C1=C(C)NC(C)=C(C(=O)OC)C1c1ccccc1[N+](=O)[O-]	-3%
CC1CCCCC1=O (centres unmarked)	56%
CCOC(=O)CC(=O)O	-11%
CCCCCCCC(=O)O	-35%
OC[C@H]1O[C@H](OC[C@H]2OC(O)[C@H](O)[C@@H](O)[C@@H]2O)[C@H](O)[C@@H](O)[C@@H]1O (some centres unmarked)	-42%
N=C(N)NS(=O)(=O)c1ccc(N)cc1	-10%
COC(=O)[C@H]1O[C@@H](Oc2cc3oc(-c4ccccc4)cc(=O)c3c(O)c2O)[C@H](O)[C@@H](O)[C@@H]1O	-5%
